# Measurements from different studies.
# Every numbered part comes from another study and shows a few of its results, in no order. “And” joins repeats or separate records; there may be more than shown.
# Chain of UniProt P08581 (whole entry, looked up): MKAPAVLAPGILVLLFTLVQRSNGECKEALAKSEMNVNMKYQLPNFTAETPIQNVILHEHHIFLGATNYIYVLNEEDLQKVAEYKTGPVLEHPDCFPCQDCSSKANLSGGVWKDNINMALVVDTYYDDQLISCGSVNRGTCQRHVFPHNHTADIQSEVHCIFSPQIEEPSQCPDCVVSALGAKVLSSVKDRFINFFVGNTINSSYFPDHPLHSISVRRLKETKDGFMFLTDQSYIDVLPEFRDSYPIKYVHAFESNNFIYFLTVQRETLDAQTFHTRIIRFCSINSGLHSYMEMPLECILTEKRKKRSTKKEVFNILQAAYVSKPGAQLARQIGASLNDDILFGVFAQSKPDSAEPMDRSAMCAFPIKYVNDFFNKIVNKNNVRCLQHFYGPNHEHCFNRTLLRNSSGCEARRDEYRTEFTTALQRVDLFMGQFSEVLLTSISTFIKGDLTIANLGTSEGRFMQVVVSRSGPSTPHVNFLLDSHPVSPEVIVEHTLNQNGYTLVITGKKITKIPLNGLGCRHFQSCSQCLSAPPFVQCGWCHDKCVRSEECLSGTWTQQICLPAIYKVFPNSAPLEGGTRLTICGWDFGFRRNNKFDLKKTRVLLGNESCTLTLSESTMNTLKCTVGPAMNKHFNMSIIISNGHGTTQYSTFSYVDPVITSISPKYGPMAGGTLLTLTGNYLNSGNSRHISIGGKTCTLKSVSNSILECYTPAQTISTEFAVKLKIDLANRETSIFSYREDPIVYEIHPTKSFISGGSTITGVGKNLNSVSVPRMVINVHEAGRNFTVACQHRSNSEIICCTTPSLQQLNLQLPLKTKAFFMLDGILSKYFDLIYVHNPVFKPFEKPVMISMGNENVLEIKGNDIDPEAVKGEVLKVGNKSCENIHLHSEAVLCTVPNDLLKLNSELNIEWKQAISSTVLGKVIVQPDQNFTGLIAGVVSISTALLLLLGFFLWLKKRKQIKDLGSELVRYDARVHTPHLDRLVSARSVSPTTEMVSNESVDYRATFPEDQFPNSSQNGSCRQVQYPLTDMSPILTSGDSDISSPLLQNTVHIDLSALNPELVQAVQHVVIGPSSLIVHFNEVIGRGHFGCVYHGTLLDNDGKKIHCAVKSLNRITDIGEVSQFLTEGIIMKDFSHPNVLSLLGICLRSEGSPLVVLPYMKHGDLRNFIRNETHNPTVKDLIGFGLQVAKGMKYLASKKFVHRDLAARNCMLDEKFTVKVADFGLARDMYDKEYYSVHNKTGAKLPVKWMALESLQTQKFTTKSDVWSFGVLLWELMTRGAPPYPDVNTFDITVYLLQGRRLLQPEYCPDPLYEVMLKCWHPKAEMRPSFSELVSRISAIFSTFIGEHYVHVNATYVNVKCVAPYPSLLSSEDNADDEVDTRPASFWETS
# Chain of UniProt Q16539 (whole entry, looked up): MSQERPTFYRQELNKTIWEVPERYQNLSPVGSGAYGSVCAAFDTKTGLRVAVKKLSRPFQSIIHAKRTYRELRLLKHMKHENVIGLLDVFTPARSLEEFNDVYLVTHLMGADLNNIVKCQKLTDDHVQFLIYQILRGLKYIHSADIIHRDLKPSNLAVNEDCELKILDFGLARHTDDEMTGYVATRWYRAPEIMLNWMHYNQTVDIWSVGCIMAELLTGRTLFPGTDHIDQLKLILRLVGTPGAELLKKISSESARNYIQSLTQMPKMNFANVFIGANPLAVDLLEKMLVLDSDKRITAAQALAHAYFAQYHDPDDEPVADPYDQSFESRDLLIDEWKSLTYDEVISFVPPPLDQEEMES
# Chain of UniProt Q8N568 (whole entry, looked up): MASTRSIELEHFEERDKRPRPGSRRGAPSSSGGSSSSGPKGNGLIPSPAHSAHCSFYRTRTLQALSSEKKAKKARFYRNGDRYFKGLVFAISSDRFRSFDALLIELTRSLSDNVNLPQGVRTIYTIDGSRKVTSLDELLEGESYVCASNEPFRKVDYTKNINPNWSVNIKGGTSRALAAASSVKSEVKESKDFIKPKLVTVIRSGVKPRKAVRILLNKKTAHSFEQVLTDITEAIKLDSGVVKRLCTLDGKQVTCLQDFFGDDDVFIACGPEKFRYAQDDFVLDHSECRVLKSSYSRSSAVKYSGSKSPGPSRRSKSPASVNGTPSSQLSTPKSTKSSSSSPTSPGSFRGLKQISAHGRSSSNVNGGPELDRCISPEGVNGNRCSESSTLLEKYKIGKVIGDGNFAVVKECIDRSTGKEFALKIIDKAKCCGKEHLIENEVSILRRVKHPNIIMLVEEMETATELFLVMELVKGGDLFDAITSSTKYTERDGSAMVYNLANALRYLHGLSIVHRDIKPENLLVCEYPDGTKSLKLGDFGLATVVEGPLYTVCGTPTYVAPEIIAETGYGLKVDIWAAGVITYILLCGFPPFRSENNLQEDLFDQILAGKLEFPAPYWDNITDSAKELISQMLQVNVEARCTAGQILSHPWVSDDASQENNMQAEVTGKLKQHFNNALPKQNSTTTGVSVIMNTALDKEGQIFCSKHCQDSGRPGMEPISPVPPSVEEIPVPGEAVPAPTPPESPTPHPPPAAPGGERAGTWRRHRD
# Chain of UniProt Q15759 (whole entry, looked up): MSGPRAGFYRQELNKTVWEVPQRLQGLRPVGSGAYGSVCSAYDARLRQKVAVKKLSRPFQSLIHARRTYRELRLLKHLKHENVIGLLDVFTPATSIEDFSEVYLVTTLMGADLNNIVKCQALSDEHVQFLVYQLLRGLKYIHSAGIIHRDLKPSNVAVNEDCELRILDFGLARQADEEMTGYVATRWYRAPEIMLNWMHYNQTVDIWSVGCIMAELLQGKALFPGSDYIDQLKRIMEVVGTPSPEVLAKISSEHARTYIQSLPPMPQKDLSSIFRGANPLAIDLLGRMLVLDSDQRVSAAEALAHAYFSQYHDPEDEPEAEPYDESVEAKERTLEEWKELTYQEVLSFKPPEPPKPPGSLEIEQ
# Chain of UniProt P06493 (whole entry, looked up): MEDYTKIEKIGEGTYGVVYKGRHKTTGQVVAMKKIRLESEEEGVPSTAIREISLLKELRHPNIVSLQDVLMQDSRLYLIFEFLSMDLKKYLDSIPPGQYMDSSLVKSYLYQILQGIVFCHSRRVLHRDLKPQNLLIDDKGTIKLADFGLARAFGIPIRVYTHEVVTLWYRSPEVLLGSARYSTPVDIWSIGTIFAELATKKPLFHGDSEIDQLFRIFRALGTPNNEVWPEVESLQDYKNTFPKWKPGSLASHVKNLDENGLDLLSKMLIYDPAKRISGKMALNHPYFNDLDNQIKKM
# Chain of UniProt P10721 (whole entry, unmodified, looked up): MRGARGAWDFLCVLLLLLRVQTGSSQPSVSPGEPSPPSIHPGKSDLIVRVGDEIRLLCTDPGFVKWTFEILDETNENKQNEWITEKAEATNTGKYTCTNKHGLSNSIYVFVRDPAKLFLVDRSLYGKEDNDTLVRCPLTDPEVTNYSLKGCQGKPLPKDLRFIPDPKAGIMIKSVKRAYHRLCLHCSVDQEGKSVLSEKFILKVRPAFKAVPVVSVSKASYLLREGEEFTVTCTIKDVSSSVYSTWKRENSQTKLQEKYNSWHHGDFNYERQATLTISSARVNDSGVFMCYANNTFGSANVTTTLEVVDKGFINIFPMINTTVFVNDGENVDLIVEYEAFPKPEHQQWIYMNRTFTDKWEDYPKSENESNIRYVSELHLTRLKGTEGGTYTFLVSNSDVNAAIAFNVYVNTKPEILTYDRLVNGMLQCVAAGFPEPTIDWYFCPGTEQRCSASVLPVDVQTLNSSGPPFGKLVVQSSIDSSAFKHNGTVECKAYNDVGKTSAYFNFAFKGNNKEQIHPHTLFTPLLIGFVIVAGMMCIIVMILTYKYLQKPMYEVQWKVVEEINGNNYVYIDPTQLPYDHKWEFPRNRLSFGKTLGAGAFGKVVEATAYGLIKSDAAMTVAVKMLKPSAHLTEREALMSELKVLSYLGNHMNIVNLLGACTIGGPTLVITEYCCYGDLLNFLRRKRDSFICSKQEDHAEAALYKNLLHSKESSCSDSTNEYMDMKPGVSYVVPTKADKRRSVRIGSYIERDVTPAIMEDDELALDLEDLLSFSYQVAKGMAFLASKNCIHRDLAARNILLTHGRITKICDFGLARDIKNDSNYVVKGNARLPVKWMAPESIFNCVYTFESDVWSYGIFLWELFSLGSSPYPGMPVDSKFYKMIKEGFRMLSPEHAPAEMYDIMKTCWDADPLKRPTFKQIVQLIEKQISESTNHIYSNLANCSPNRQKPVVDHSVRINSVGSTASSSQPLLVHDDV
# Chain of UniProt Q9NRH2 (whole entry, looked up): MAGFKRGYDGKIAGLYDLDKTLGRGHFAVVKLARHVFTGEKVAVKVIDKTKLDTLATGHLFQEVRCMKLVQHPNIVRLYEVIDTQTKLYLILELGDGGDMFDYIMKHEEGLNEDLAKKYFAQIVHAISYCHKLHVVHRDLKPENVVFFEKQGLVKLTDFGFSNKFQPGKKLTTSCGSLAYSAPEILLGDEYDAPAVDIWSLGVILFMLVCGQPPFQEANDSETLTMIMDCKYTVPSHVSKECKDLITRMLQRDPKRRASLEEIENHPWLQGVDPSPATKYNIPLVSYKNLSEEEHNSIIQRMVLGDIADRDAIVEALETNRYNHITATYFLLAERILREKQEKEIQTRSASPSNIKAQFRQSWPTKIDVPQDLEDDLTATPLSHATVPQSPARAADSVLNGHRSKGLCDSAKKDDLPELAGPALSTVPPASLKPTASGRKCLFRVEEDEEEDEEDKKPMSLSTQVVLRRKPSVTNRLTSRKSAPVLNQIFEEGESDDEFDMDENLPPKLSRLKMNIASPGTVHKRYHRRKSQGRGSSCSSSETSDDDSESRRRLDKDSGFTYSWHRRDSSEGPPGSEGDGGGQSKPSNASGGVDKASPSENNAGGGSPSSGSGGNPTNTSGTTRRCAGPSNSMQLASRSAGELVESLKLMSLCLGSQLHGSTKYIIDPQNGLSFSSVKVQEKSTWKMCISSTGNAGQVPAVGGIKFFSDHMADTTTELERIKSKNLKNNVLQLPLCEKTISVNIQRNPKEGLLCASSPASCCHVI

# Study 1
# Species: human
# Matrix: microsomes or S9
# Tested at: 2 µM
# Time: 0.5 h
Structure (SMILES),remaining compound [%]
CCOc1cccc(CNC(=O)c2c(OCC(C)C)cc(=O)n3c2CCCCC3)c1,< 1
COc1cc(Br)c(S(=O)(=O)NC2CCN(C(C)=O)CC2)cc1OC,77
Oc1ccc(C2c3c(-c4ccc(F)cc4)nnc(O)c3Nc3nnnn32)cc1 (stereo not drawn),60.2
COc1cc2c(cc1OC)-c1cc(-c3ccccc3F)cn1CC2,6.51
Cc1nn(CC(=O)NCCN2CCCCC2C)c(C)c1C (stereo not drawn),> 99
O=C(NNc1ncnc2[nH]cnc12)C1CCCCC1,77.4
COc1cc(/C=C/C(=O)O)cc(S(=O)(=O)N(C)CCO)c1OC,85.4
Cc1nn(C2CCS(=O)(=O)C2)c2c1C(C(C)C)CC(=O)N2 (stereo not drawn),74.2
Cc1nc(C)c(C(=O)NCc2ccccc2)c(-c2ccc(Cl)cc2)c1C(=O)O,> 99
Cc1c(C#N)c2ccccc2n1Cc1nc(CCc2ccccc2)n[nH]1,6.65
CCOC(=O)c1c(=O)n(-c2ccc(C)cc2)nc2ccccc12,0.454
Nc1ncc(Br)cc1S(=O)(=O)N1CCC(Oc2ccncc2)C1 (stereo not drawn),62.9
CC(C(=O)Nc1nnn[nH]1)c1ccc(-c2ccccc2)c(F)c1 (stereo not drawn),> 100

# Study 2
# Cell line: A-375
# Tested at: 100 µM
# Time: 18 h
Structure (SMILES),viability
CC[C@H](C)C(=O)O[C@H]1C[C@H](O)C=C2C=C[C@H](C)[C@H](CC[C@@H](O)C[C@@H](O)CC(=O)O)[C@H]21,93.9%
CNC(=O)c1cc(Oc2ccc(NC(=O)Nc3ccc(Cl)c(C(F)(F)F)c3)c(F)c2)ccn1,35.7%
CC(C)COc1ccc(CNC(=O)N(Cc2ccc(F)cc2)C2CCN(C)CC2)cc1,7.89%
Clc1ccc(CCC(Cn2ccnc2)Sc2c(Cl)cccc2Cl)cc1 (stereo not drawn),8.13%
Cc1ccc(S(=O)(=O)NC(=O)NN2CC3CCC[C@@H]3C2)cc1 (stereo in doubt),109%
COC1=CC(=O)C[C@@H](C)[C@]12Oc1c(Cl)c(OC)cc(OC)c1C2=O,80.5%
CCCCC(=O)O[C@]1(C(=O)CO)CC[C@H]2[C@@H]3CCC4=CC(=O)CC[C@]4(C)[C@H]3[C@@H](O)C[C@@]21C,52.8%
CCN(CC)CCNC(=O)c1c(C)[nH]c(/C=C2\C(=O)Nc3ccc(F)cc32)c1C,16.9% and 19.9%
CC(C)C(=O)Nc1ccc([N+](=O)[O-])c(C(F)(F)F)c1,35.9%
CSc1nc2cc(Cl)c(Oc3cccc(Cl)c3Cl)cc2[nH]1,8.84%
CCCCC1C(=O)N(c2ccccc2)N(c2ccccc2)C1=O,86.5%
O=C(O)CCC(=O)c1ccc(-c2ccccc2)cc1,103%
CC1CC(OC(=O)C(O)c2ccccc2)CC(C)(C)C1 (stereo not drawn),8.03%

# Study 3
# SMILES: N#CC(c1ccnc(NCCc2cccnc2)n1)c1nc2ccccc2s1 (stereo not drawn)
# Effect on: enzyme activity
# Mode: inhibitor
# Tested at: 0.5 µM
# Reference: control
target,remaining activity [%]
"MAP2K1 (Homo sapiens, UniProt Q02750)",93.2
"MAPK14 (Homo sapiens, UniProt Q16539)",89.1
"DCLK2 (Homo sapiens, UniProt Q8N568)",96
"CDC42BPB (Homo sapiens, UniProt Q9Y5S2)",95.2
"PNCK (Homo sapiens, UniProt Q6P2M8)",100
"MAPK11 (Homo sapiens, UniProt Q15759)",101
"PRKG2 (Homo sapiens, UniProt Q13237)",98.1
"MAPK1 (Homo sapiens, UniProt P28482)",93.5
"Cyclin-dependent kinase 1, with cyclin A (CDK1, Homo sapiens, UniProt P06493)",83
"MARK4 (Homo sapiens, UniProt Q96L34)",91.6
"KDR (Homo sapiens, UniProt P35968)",99.7
"CAMK4 (Homo sapiens, UniProt Q16566)",99
"MET (Homo sapiens, UniProt P08581)",105
"CLK3 (Homo sapiens, UniProt P49761)",88.5

# Study 4
# SMILES: CCOCCn1cc(C(=O)Nc2ccc(-n3nc(-c4cccnc4)cc3C(F)(F)F)cn2)ccc1=O
# Effect on: cell-free assay
# Method: competition with immobilised ligand
# Tested at: 1 µM
target,remaining binding [%]
"LATS2 (Homo sapiens, UniProt Q9NRM7)",65
"Ribosomal protein S6 kinase alpha-3, N-terminal kinase domain (RPS6KA3, Homo sapiens, UniProt P51812)",84
"DCLK3 (Homo sapiens, UniProt Q9C098)",100
"EGFR (Homo sapiens, UniProt P00533, G719S)",100
"EGFR (Homo sapiens, UniProt P00533, L861Q)",100
"SNRK (Homo sapiens, UniProt Q9NRH2)",88
"HIPK2 (Homo sapiens, UniProt Q9H2X6)",100
"KIT (Homo sapiens, UniProt P10721, L576P)",94
"MET (Homo sapiens, UniProt P08581)",95
"AKT1 (Homo sapiens, UniProt P31749)",95
"CDKL5 (Homo sapiens, UniProt O76039)",90
